Measured values of several laboratories.
Each line is one published result; not all experiments were run side by side. Values joined by “and” are separate records of one study, mostly repeats; a detail may differ. Numbers after ± are the reported error. ≈ marks a conversion by molar mass, not a printed value.

For `Cc1cc(C(=O)Nc2nc3cccc(C)c3n2[C@H]2CCCCN(C(=O)/C=C/CN(C)C)C2)ccn1`, “EC50 fold shift” read 0.8 fold and 0.62 fold (Trypanosoma brucei; cell growth, Alamar Blue; 2T1 overexpressing Tb927.11.12310; baseline: parental 2T1).
The EC50 of `COc1cc(C(SC(C)C)SC(C)C)ccc1OCCNS(=O)(=O)c1ccc(Cl)cc1` is reported as 271 ± 3.7 µg/mL (≈ 537 µM) (tobacco mosaic virus; curative activity; in vivo plant).
`CN1C(=O)C(C2C3=C(CC(C)(C)CC3=O)Oc3ccc([N+](=O)[O-])cc32)C(=O)N(C)C1=O` (centres unmarked) has a lipid content of 0.643 OD492 and 0.651 OD492 and 0.668 OD492 (3T3-L1 preadipocytes; adipogenesis, Oil Red O staining; IC20, 14 days, single replicate).
`CC(C)CC(C(=O)N1CC2(CC1C#N)C(=O)Nc1ccccc12)N(C)C(=O)c1cc2c(F)cc(F)c(F)c2[nH]1` (centres unmarked) has an inhibition of 87.8% (human coronavirus 229E; viral replication; MRC-5; 0.003125 µM).
`CCCSC(SCCC)c1ccc(OCCNS(=O)(=O)c2ccccc2C(F)(F)F)c(OC)c1` has an EC50 of 383.3 ± 0.9 µg/mL (≈ 713 µM) (Tobacco mosaic virus; curative activity; plant in vivo).
`COc1ccccc1-c1n[nH]c2nc(N[C@H]3CC[C@H](NS(=O)(=O)CC(C)C)CC3)ncc12` gave a relative abundance of 1.03 (bead binding, competition bead pull-down, refers to: LMJF.29.1270; Leishmania donovani extract; 10 µM; baseline: vehicle).
`Nc1ncc(-c2cc(-c3cnn(CC(F)(F)F)c3)ncc2F)nc1C(=O)NC1CNCC(F)C1` (centres unmarked) gave a remaining binding of 100% (ABL1(M351T)-phosphorylated; KINOMEscan competition binding; 1 µM; baseline: DMSO control).
`CCCCSC(SCCCC)c1ccc(OCCNS(=O)(=O)c2ccc(F)cc2)c(OC)c1` gave an EC50 of 269 ± 3.7 µg/mL (≈ 522 µM) (tobacco mosaic virus; protective activity; in vivo plant).
The log TGI of `CC(C)(C)C(=O)OCOP(=O)(OCOC(=O)C(C)(C)C)C1CCCN(O)C1=O` (centres unmarked) is reported as -5.8 log M (SK-MEL-5).
With `CC[N+](C)(CC)Cc1cc(Nc2ccnc3cc(Cl)ccc23)ccc1O.[Cl-]` the inhibition was 69.9 ± 3.4% (Dengue virus type 2; viral replication, Rluc reporter replicon; BHK-21 DENV2 replicon cells; 50 µM, 24 h).
With `CCn1cnc2c(Oc3ccc(/C=C/C(=O)c4ccc(NS(=O)(=O)c5ccccc5C)cc4)cc3)ncnc21` the EC50 was 471.5 ± 1.4 µg/mL (≈ 874 µM) (Tobacco mosaic virus; curative activity; plant in vivo).
`COc1ccccc1-c1n[nH]c2nc(NC3CCN(C(=O)Cc4ccc(F)cc4F)CC3)ncc12` has a relative abundance of 1.02 (bead binding, competition bead pull-down, refers to: LINJ.29.1250; Leishmania donovani extract; 10 µM; baseline: vehicle).
For `CN1C(=O)C(C2C3=C(CC(C)(C)CC3=O)Oc3ccc(Cl)cc32)C(=O)N(C)C1=O` (centres unmarked), the lipid content was 0.692 OD492 and 0.693 OD492 and 0.664 OD492 (3T3-L1 preadipocytes; adipogenesis, Oil Red O staining; IC20, 14 days, single replicate).
With `CCN(CC)Cc1cc(Nc2c(C)cnc3cc(Cl)ccc23)ccc1O.Cl` the inhibition was 89.9 ± 10.6% (Dengue virus type 2; viral replication, Rluc reporter replicon; BHK-21 DENV2 replicon cells; 50 µM, 24 h).
For `CC(C)[C@@H]1NC(=O)[C@H](C)NC(=O)[C@H](Cc2ccc(O)cc2)NC(=O)[C@H](CC(=O)O)NC(=O)[C@@H](NC(=O)[C@H](CCCCN)NC(=O)[C@H](CC(=O)O)NC(=O)[C@H](Cc2c[nH]cn2)NC(=O)[C@@H](NC(=O)[C@H](Cc2ccccc2)NC(=O)[C@@H](N)Cc2ccccc2)C(C)C)CCSSCC[C@@H](C(=O)N[C@@H](CCCCN)C(=O)NCC(=O)N[C@@H](CO)C(=O)N[C@@H](CCCCNC(=O)CCCC[C@@H]2SC[C@@H]3NC(=O)N[C@@H]32)C(N)=O)NC(=O)[C@H](CCC(N)=O)NC(=O)[C@H](Cc2c[nH]cn2)NC1=O`, the kon was 23000 M⁻¹ s⁻¹ (anti-HA antibody 12CA5, mouse; biolayer interferometry; 30 °C).
For `O=C(O)c1ccc(-c2nc(-c3ccccc3Cl)c3sccn23)cc1`, the reticulocytes was 1.49% and 1.35% and 1.46% and 1.28% (C57BL/6 mice, 5-fluorouracil treated; dose not given, day 3; baseline: RBC).
`CCCCCCCCCCCC(=O)C(C)C(=O)N1CCC[C@H]1C(=O)NC(C)(C)C(=O)NC(C)(C)C(=O)NC(C)(C)C(=O)N[C@](C)(CC)C(=O)NCCC(=O)N[C@@H](C)C(=O)N[C@](C)(CC)C(=O)N[C@@H](C)C(=O)N[C@@H](CC(C)C)C(=O)N[C@](C)(CC)C(=O)NCCC(=O)N[C@@H](C)C(=O)N[C@](C)(CC)C(=O)NCCC(=O)N[C@@H](C)C(=O)NC(C)(C)C(=O)NC(C)(C)C(=O)NC(C)(C)C(=O)N[C@@H](C)C(=O)N[C@@H](CC(=O)O)C(=O)O` (some centres unmarked) — result for “bound compound (MS peak area)”: 0 a.u. (chitin; pull-down, LC-MS; 1 h, pH 7.0, 30 °C, with: chitin 1 mg/mL; higher = more bound).
The bi-ionic potential of `CC(C)[C@@H]1NC(=O)[C@@H]2CCCN2C(=O)[C@@H](C(C)C)NC(=O)[C@H]2CCCN2C(=O)[C@H](C(C)C)NC(=O)[C@@H]2CCCN2C(=O)[C@@H](C(C)C)NC(=O)[C@H]2CCCN2C(=O)[C@H](C(C)C)NC(=O)[C@@H]2CCCN2C(=O)[C@@H](C(C)C)NC(=O)[C@H]2CCCN2C1=O` is reported as 2 mV (sheep lipid bilayer; 10 µM, pH 7.4, 23 °C, with: 0.1 M K+ vs Rb chloride).
`COc1cc(C(SC(C)C)SC(C)C)ccc1OCCNS(=O)(=O)c1ccc(F)c(Cl)c1` has an EC50 of > 2500 µg/mL (tobacco mosaic virus; curative activity; in vivo plant).
Under “resting membrane potential”, `CCN(Cc1ccccc1)C(=O)CCc1nc(CN2CCN(C(=O)Cc3ccc(OC)c(OC)c3)CC2)no1` is recorded as -59.5 ± 2.48 mV (current clamp; DRG neurons, naive rat; 3 µM).
The IC50 of `CC1CCC2C(C)C(CCCOC(=O)C(Cc3ccc(N(CCCl)CCCl)cc3)NC(=O)OC(C)(C)C)OC3OC4(C)CCC1C32OO4` (centres unmarked) is reported as > 50 µM (PC-3 (p53 null); cell growth, CCK-8; 48 h).
With `COc1cc(C(SC(C)C)SC(C)C)ccc1OCCNS(=O)(=O)c1cccc(C(F)(F)F)c1` the EC50 was 936.7 ± 2.7 µg/mL (≈ 1740 µM) (Tobacco mosaic virus; inactivation activity; plant in vivo).
For `C[Si]1(C[C@H](CN)CC(=O)O)CCCC1`, the inhibition was -13% (sodium channel site 2, rat; binding; 70 µM).
With `CC(C)C[C@@H]1NC(=O)[C@@H](Cc2c[nH]c3ccccc23)NC(=O)[C@H](CCCNC(=N)N)NC(=O)[C@@H](CCC(=O)O)NC(=O)[C@H](CCC(N)=O)NC(=O)[C@@H](CCC(=O)O)NC(=O)[C@H](CCCNC(=N)N)NC(=O)[C@@H](Cc2c[nH]c3ccccc23)NC1=O` the cytokine level was 960 ± 370 pg/g tissue (Luminex, refers to: IL-15; LDLr-/- mice, Western diet, liver; dose not given, 4 weeks).
For `CC[C@H](C)CCCCC(=O)N[C@@H](CCN)C(=O)N[C@H](C(=O)N[C@@H](CCN)C(=O)N[C@H]1CCNC(=O)[C@H]([C@@H](C)O)NC(=O)[C@H](CCN)NC(=O)[C@H](CCN)NC(=O)[C@H](CC(C)C)NC(=O)[C@@H](CC(C)C)NC(=O)[C@H](CCN)NC1=O)[C@@H](C)O`, “MIC fold change” read 1.89 (Escherichia coli; daily serial passaging; ATCC 8739; highest sub-MIC, 49 days; baseline: initial MIC).
`NCCO.O=C(O)C(Cl)Cl` has a herbicidal inhibition of 0% (Eclipta prostrata; 15 mg/mL, 21 days, pre-emergence, greenhouse).
